Measurements from different studies.

Compound	assay	test system	setting	how to read	tumour growth inhibition [%]
CCCCCc1ccc(S(=O)(=O)N2CC2C(=O)OC)cc1 (stereo not shown)	–	mouse, Lewis lung carcinoma	intraperitoneal, 15 mg/kg, 16 doses, day 16	–	65
CC1(C)CCC(CN2CCN(c3ccc(C(=O)NS(=O)(=O)c4ccc(NCC5CCOCC5)c([N+](=O)[O-])c4)c(Oc4cnc5[nH]ccc5c4)c3)CC2)=C(c2ccc(Cl)cc2)C1	–	mouse Toledo xenograft	oral, 15 mg/kg once daily, day 31	–	50
C=CC(=O)N1CC2C(=O)N(CCN(C)C)c3c(c4cc(Cl)c(-c5c(O)cccc5F)nc4n(-c4c(C)ccnc4C(C)C)c3=O)N2CC1C (stereo not shown)	–	NCI-H358, mouse xenograft	oral, 100 mg/kg once daily	–	112
Cc1[nH]nc2c1N=C(c1ccccc1Cl)c1cnc(N3CCOCC3)cc1N2	–	mouse HCC1806 TNBC xenograft	oral, 5 mg/kg once daily	–	61.5
COC(=O)C1CN1S(=O)(=O)c1ccc2cc(C)ccc2c1 (stereo not shown)	–	mouse, Lewis lung carcinoma	ip, 100 mg/kg, 240 h	–	9
CC(C)c1ccccc1[C@@H]1CCCN1C1CC2(CCN(c3ccc(C(=O)NS(=O)(=O)c4ccc(NC[C@H]5CC[C@](C)(O)CC5)c([N+](=O)[O-])c4)c(Oc4cnc5[nH]ccc5c4)c3)CC2)C1	–	mouse Toledo xenograft	oral, 5 mg/kg once daily, day 31	–	60
Cc1noc2c1-c1ccccc1C(c1ccc(Cl)cc1)=N[C@H]2CC(N)=O	–	mouse, MV4-11 subcutaneous xenograft	60 mg/kg, 14 days	–	88
Cc1cc(NC(=O)C(=O)N2C[C@@H](C)CC[C@@H]2c2ccc3scnc3c2)cnc1N	bioluminescence	mouse, U-87 MG MTAP-null orthotopic glioblastoma	120 mg/kg twice daily, day 20	–	89
CN(C)Cc1nc(Nc2ccc(-c3cnc4cc(F)ccn34)c3c2C(=O)NC3)ccc1C1CCOC1 (stereo not shown)	–	mouse EMT6 syngeneic tumour	oral, 75 mg/kg once daily	baseline: vehicle	~70
CC(C)c1ccc(N(C)c2ccc3c(c2)OCC[C@H]3CNc2cnccc2C(=O)O)cc1	–	mouse, sample A gastric PDX	5 mg/kg, day 38	–	43

A few entries again:
Compound	assay	test system	setting	how to read	tumour growth inhibition [%]
C=CC(=O)N1CC2C(=O)N(CCN(C)C)c3c(c4cc(Cl)c(-c5c(O)cccc5F)nc4n(-c4c(C)ccnc4C(C)C)c3=O)N2CC1C (stereo not shown)	–	NCI-H358, mouse xenograft	oral, 100 mg/kg once daily	–	112
